# Measurements collected from several papers.
# Numbers after ± are the reported error.
SMILES,assay,test system,setting,how to read,endpoint,result
N=C(N)NCCC[C@@H]1NC(=O)[C@H](Cc2c[nH]c3ccccc23)NC(=O)[C@@H](CC2CCCCC2)NC(=O)[C@@H]2CCCN2C(=O)[C@@H](NC(=O)CCc2ccccc2)CCCNC1=O,,"C57BL/6J mice, brain","subcutaneous, 1 mg/kg, two-compartment model",,elimination rate constant,0.00035 s⁻¹
CC(C)c1cnc(-c2cc(Cl)ccc2F)cc1Nc1ccncc1C(=O)NC(CO)CO,"monotherapy, measured: myalgia",human patients,"oral, dose not given, grade 4, phase I A",,patients with treatment-related adverse event,0%
Cc1cccc(-c2cccc(C)n2)n1.Cc1cccc(-c2cccc(C)n2)n1.[Cl-].[Cl-].[Ru+2].c1ccc(-c2ccnc3c2ccc2c(-c4ccccc4)ccnc23)cc1,,phosphate buffer with NaCl,"concentration not given, pH 7.4, 37 °C, dark, dialysis",,total release from nanoassemblies,77%
COc1cccc(C=NCCCN(C)CCN(C)CCCN=Cc2cccc(OC)c2[O-])c1[O-].[67Ga+3],,rat,"intravenous, 1 min",reference: heart over blood,tissue uptake ratio,7.6 ± 1
[2H]C([2H])([2H])NC(=O)c1ccc(N2C(=S)N(c3ccc(C#N)c(C(F)(F)F)c3)C(=O)C2(C)C)cc1F,,"human, male","oral, 160 mg, single dose, fed",,Vd/F,45.2 ± 19.1 L
C[C@H](NC(=O)COC(=O)[C@H](C)NC(=O)CO)C(=O)O,,water,"pH 3, 25 °C",,depolymerization half-life,647 h
CC(C)C[C@@H](NC(=O)[C@H](NC(=O)[C@H]1CCCN1)[C@H](C)O)C(=O)N[C@H](Cc1c[nH]cn1)C(=O)N[C@@H](C(=O)N[C@H](Cc1c[nH]cn1)C(=O)N[C@H](CC(N)=O)C(=O)N[C@H](CCCNC(=N)N)C(=O)N[C@H](CCCNC(=N)N)C(=O)N[C@H](CCCNC(=N)N)C(=O)N[C@H](CCCNC(=N)N)C(=O)N[C@H](CCCNC(=N)N)C(N)=O)[C@H](C)O,,"beagle dog, plasma","intravenous, 3 mg/kg, single dose",,MRT,9.4 h
Cc1ccc(OCC(=O)O)cc1,,"Sprague-Dawley rat, female, plasma","oral gavage, 30 mg/kg of parent drug",,t1/2,1.7 h
COC(=O)c1ccc2c(c1)NC(=O)/C2=C(\Nc1ccc2c(c1)CCN2C(=O)CN1CCOCC1)c1ccccc1,,"beagle dog, blood","intravenous, 2 mg/kg",,clearance,37.2 mL/min/kg
CN[C@@H]1[C@H](O)[C@H](NC)[C@H]2O[C@]3(O)[C@H](O[C@@H]2[C@H]1O)O[C@H](C)C[C@@]3(O)CNCCc1ccc(C)cc1,,"male BALB/c mouse, plasma","intravenous, 10 mg/kg",,C0,38000 to 74000 ng/mL
O=C([O-])CN1CCN(CC(=O)[O-])CCN(CC(=O)NCC2CCC(C(=O)NC(Cc3ccc4ccccc4c3)C(=O)NCCCCC(NC(=O)NC(CCC(=O)O)C(=O)O)C(=O)O)CC2)CCN(CC(=O)[O-])CC1.[44Sc+3] (stereo not shown),PET/CT,"human patients, kidney",dose not given,,SUV,14
O=C(CCc1ccc(CNC(C(=O)OC2CCCC2)C2CCCCC2)cn1)NO (stereo not shown),,"human, plasma","oral, 20 mg, single dose, median",,Tmax,0.5 h
O=C(O)C1OC(OC2C(COS(=O)(=O)O)OC(OC3C(C(=O)O)OC(OC4C(COS(=O)(=O)O)OC(OC5C(C(=O)O)OC(OC6C(COS(=O)(=O)O)OC(OC7C(C(=O)O)OC(OC8C(COS(=O)(=O)O)OC(OC9C(C(=O)O)OC(OC%10C(COS(=O)(=O)O)OC(OC%11C(C(=O)O)OC(Oc%12ccc([N+](=O)[O-])cc%12)C(O)C%11O)C(NS(=O)(=O)O)C%10O)C(OS(=O)(=O)O)C9O)C(NS(=O)(=O)O)C8O)C(OS(=O)(=O)O)C7O)C(NS(=O)(=O)O)C6O)C(OS(=O)(=O)O)C5O)C(NS(=O)(=O)O)C4O)C(OS(=O)(=O)O)C3O)C(NS(=O)(=O)O)C2OS(=O)(=O)O)C(O)C(O)C1OC1OC(COS(=O)(=O)O)C(O)C(O)C1NS(=O)(=O)O (stereo not shown),,"rats, serum","intravenous, 3600 µg/kg/day for 7 days, day 8",,alanine aminotransferase,38.6 ± 2.4 U/L
CC(=O)N[C@H](CC(=O)O)C(=O)N[C@H](Cc1c[nH]c2ccccc12)C(=O)N[C@H](Cc1ccccc1)C(=O)N[C@H](CCCCN)C(=O)N[C@H](C)C(=O)N[C@H](Cc1ccccc1)C(=O)N[C@H](Cc1ccc(O)cc1)C(=O)N[C@H](CC(=O)O)C(=O)N[C@H](CCCCN)C(=O)N[C@@H](C(=O)N[C@H](C)C(=O)N[C@H](CCC(=O)O)C(=O)N[C@H](CCCCN)C(=O)N[C@H](Cc1ccccc1)C(=O)N[C@H](CCCCN)C(=O)N[C@H](CCC(=O)O)C(=O)N[C@H](C)C(=O)N[C@H](Cc1ccccc1)C(N)=O)C(C)C,,"statin-treated high-risk CHD women, plasma","oral, 500 mg daily, day 13, 0 to 8 h, mean, all subjects",,Cmax,197 ng/mL
CC[C@@H](C)[C@@H](NC(=O)[C@@H](C)NC(=O)[C@@H](CCCCN)NC(=O)[C@@H](CC(C)C)NC(=O)[C@@H](C)NC(=O)[C@H](NC(=O)[C@@H](CCCCN)NC(=O)[C@@H](CC(C)C)NC(=O)[C@H](NC(=O)[C@@H](CCCCN)NC(=O)[C@@H](CCCCN)NC(=O)[C@@H](CCCCN)NC(=O)[C@@H](C)NC(=O)[C@@H](CCCCN)NC(=O)[C@@H](CO)NC(=O)[C@@H](Cc1ccccc1)NC(=O)[C@H](NC(=O)[C@@H](CCCCN)NC(=O)[C@@H](CC(C)C)NC(=O)[C@@H](Cc1ccccc1)NC(=O)[C@@H](CO)NC(=O)[C@@H](CCCCN)NC(=O)[C@@H](Cc1c[nH]c2ccccc12)NC(=O)[C@@H](CCCCN)NC(C)=O)[C@H](C)O)C(C)C)[C@H](C)O)C(=O)N[C@H](CO)C(=O)N[C@H](CCCCN)C(N)=O,circular dichroism,aqueous buffer,"pH 7.0, 5 °C",reference: reference peptide in TFE,helical content,2%
O=C(NCCCN(CCCCN(CCCNC(=O)c1cccc(=O)n1[O-])C(=O)c1cccc(=O)n1[O-])C(=O)c1cccc(=O)n1[O-])c1cccc(=O)n1[O-].[89Zr+4],,"mouse, kidney",10 min,,tracer uptake,9.46 %ID/g
C#CCN(CCCNC(=O)CCCCC[N+]1=C(/C=C/C2=C(Cl)C(=C/C=C3\N(CCCCCC(=O)[O-])c4ccccc4C3(C)C)/CCC2)C(C)(C)c2ccccc21)CCCOc1ccc(Cl)cc1Cl,,mouse plasma,"0.01 µg/mL nominal, 3 freeze-thaw cycles at -80 °C",,concentration,9.5 ± 0.9 ng/mL
CC1=CC(C)=[N+]2C1=Cc1ccc(CCC(=O)N3CCN(C(=O)c4cc(Cc5n[nH]c(=O)c6ccccc56)ccc4F)CC3)n1[B-]2(F)F,,"athymic nude NU/J mouse, whole blood","intravenous, 2.5 mg/kg",,weighted half-life,0.408 h
Nc1nccc(-c2cn(C3CC3)c3ccccc23)n1,"radio-HPLC, co-eluting peaks pooled","human male, urine","oral, 110 mg, 0 to 96 h, sample holds 4.16% dose",reference: dose,excreted amount,0.02%
NC12CNCCNCC(NCc3ccc(CNC(=O)CCCC(=O)NCc4ccc(-c5nncnn5)cc4)cc3)(CNCCNC1)CNCCNC2.[64Cu+2],OLINDA dosimetry,brain,"24 h pretargeting interval, with: huA33-TCO pretargeting",,mean absorbed dose,0.0364 rad/mCi
Cc1cc(O)cc(O)c1C(=O)c1c2c3c(c(O)cc(C)c3oc1=O)C(=O)c1c(O)cc(O)cc1-2,,Caco-2,"100 µM, 3 h, pH 7.4",,Papp B→A,0.067 ×10⁻⁶ cm/s
CCCC[C@H](NC(C)=O)C(=O)N[C@H]1CC(=O)NCCCC[C@@H](C(=O)N[C@@H](C(=O)N2CCC[C@@H]2C(N)=O)C(C)C)NC(=O)[C@H](Cc2c[nH]c3ccccc23)NC(=O)[C@H](CCCN=C(N)N)NC(=O)[C@@H](Cc2ccc3ccccc3c2)NC(=O)[C@@H]2CCCN2C1=O,,"Beagle dog, both sexes, plasma","subcutaneous, once daily, 0.75 mg/kg, day 28",,AUC,14100 ± 2200 ng·h/mL
CCc1c2c(nc3ccc(O)cc13)-c1cc3c(c(=O)n1C2)COC(=O)[C@]3(O)CC,,"human patients, plasma","intravenous, 177 mg/m^2 of parent drug",,Tmax,2.34 h
CONC(=O)/C=C/c1cccc(S(=O)(=O)Nc2ccccc2)c1,,"human, mild liver dysfunction, plasma","intravenous, 400 mg/m^2 belinostat, cycle 1 day -7, geometric mean",reference: metabolite over belinostat,AUC(0-inf) metabolic ratio,0.574
Cc1ccccc1/N=N/c1ccc(/N=N/c2c(O)ccc3ccccc23)c(C)c1,,rat whole blood QC samples,"16.0 µg/L, 12 h, room temperature, short-term stability",,measured concentration,16.1 µg/L
Cn1c(=O)oc2ccc(-c3ccc(CC(C#N)NC(=O)C4CNCCCO4)c(F)c3)cc21 (stereo not shown),measured: anaemia,human,"40 mg single dose, fasted",,subjects with TEAE,8.3%
CC(=O)N([O-])CCCCCNC(=O)CCC(=O)N([O-])CCCCCNC(=O)CCC(=O)N([O-])CCCCCN.[89Zr+4],radio-iTLC,aqueous buffer,"3 h, pH 7.5, 37 °C, EDTA challenge, with: 100-fold excess EDTA",,intact complex,95.8 ± 0.5%
CCCC[C@H](NC(=O)CNC(=O)CNC(=O)CN1CCN(CC(=O)O)CCN(CC(=O)O)CCN(CC(=O)O)CC1)C(=O)N[C@H]1CC(=O)NCCCC[C@@H](C(N)=O)NC(=O)[C@H](Cc2c[nH]c3ccccc23)NC(=O)[C@H](CCCNC(=N)N)NC(=O)[C@@H](Cc2ccccc2)NC(=O)[C@H](Cc2c[nH]cn2)NC1=O [gallium-67 labelled],,"female C57 mice, B16/F1 melanoma, liver","intravenous, 0.037 MBq, 2 h",,tissue uptake,0.86 ± 0.19 %ID/g
CN(C)c1cc(CN2CCCCC2)c(O)c2c1C[C@H]1C[C@H]3[C@H](N(C)C)C(O)=C(C(N)=O)C(=O)[C@@]3(O)C(O)=C1C2=O,,"cynomolgus monkey, plasma","intravenous, 5 mg/kg",,Cmax,10100 ng/mL
CCCC[C@@H]1NC(=O)[C@@H](NC(=O)[C@H](CCC(=O)O)NC(=O)CNC(=O)CN2CCN(CC(=O)O)CCN(CC(=O)O)CCN(CC(=O)O)CC2)CCCCNC(=O)C[C@@H](C(N)=O)NC(=O)[C@H](C(C)C)NC(=O)[C@@H]2CCCN2C(=O)[C@H](CCCNC(=N)N)NC(=O)CNC(=O)[C@H](Cc2c[nH]c3ccccc23)NC(=O)[C@H](CCCNC(=N)N)NC(=O)[C@@H](Cc2ccccc2)NC(=O)[C@H](Cc2c[nH]cn2)NC(=O)[C@H](CCC(=O)O)NC1=O [gallium-67 labelled],,"C57 mice, B16/F1 flank melanoma","intravenous, 2 h, with: blocking peptide 10 µg",reference: tumour over liver,tissue ratio,1.28
CC(C)[C@H](NC(=O)[C@@H]1CCCN1C(=O)[C@H](CCCNC(=N)N)NC(=O)[C@H](CS)NC(=O)[C@H](Cc1c[nH]c2ccccc12)NC(=O)[C@H](CCCNC(=N)N)NC(=O)[C@@H](Cc1ccccc1)NC(=O)[C@H](Cc1c[nH]cn1)NC(=O)[C@H](CCC(=O)O)NC(=O)[C@H](CS)NC(=O)[C@H](CS)NC(=O)[C@@H]1CC(=O)N[C@@H](CCCNC(=N)N)C(=O)NCC(=O)N[C@@H](CC(=O)O)C(=O)N[C@H](Cc2ccc(O)cc2)C(=O)N1)C(N)=O [technetium-99m labelled],,"C57 mouse, female, B16/F1 melanoma, spleen","intravenous, 0.037 MBq, 24 h",,tissue uptake,0.57 ± 0.25 %ID/g

# Excerpt of the above:
SMILES,assay,test system,setting,how to read,endpoint,result
O=C(O)C1OC(OC2C(COS(=O)(=O)O)OC(OC3C(C(=O)O)OC(OC4C(COS(=O)(=O)O)OC(OC5C(C(=O)O)OC(OC6C(COS(=O)(=O)O)OC(OC7C(C(=O)O)OC(OC8C(COS(=O)(=O)O)OC(OC9C(C(=O)O)OC(OC%10C(COS(=O)(=O)O)OC(OC%11C(C(=O)O)OC(Oc%12ccc([N+](=O)[O-])cc%12)C(O)C%11O)C(NS(=O)(=O)O)C%10O)C(OS(=O)(=O)O)C9O)C(NS(=O)(=O)O)C8O)C(OS(=O)(=O)O)C7O)C(NS(=O)(=O)O)C6O)C(OS(=O)(=O)O)C5O)C(NS(=O)(=O)O)C4O)C(OS(=O)(=O)O)C3O)C(NS(=O)(=O)O)C2OS(=O)(=O)O)C(O)C(O)C1OC1OC(COS(=O)(=O)O)C(O)C(O)C1NS(=O)(=O)O (stereo not shown),,"rats, serum","intravenous, 3600 µg/kg/day for 7 days, day 8",,alanine aminotransferase,38.6 ± 2.4 U/L
CONC(=O)/C=C/c1cccc(S(=O)(=O)Nc2ccccc2)c1,,"human, mild liver dysfunction, plasma","intravenous, 400 mg/m^2 belinostat, cycle 1 day -7, geometric mean",reference: metabolite over belinostat,AUC(0-inf) metabolic ratio,0.574
Nc1nccc(-c2cn(C3CC3)c3ccccc23)n1,"radio-HPLC, co-eluting peaks pooled","human male, urine","oral, 110 mg, 0 to 96 h, sample holds 4.16% dose",reference: dose,excreted amount,0.02%
Cc1ccc(OCC(=O)O)cc1,,"Sprague-Dawley rat, female, plasma","oral gavage, 30 mg/kg of parent drug",,t1/2,1.7 h
